Earlier results as cited in several papers.
Each line is one published result; not all experiments were run side by side. ± marks the error that the study gave.
ribH: 6,7-dimethyl-8-ribityllumazine synthase (ribH, Mycobacterium tuberculosis, UniProt P9WHE9)
UniProt P9WHE9, sequence (whole entry, looked up): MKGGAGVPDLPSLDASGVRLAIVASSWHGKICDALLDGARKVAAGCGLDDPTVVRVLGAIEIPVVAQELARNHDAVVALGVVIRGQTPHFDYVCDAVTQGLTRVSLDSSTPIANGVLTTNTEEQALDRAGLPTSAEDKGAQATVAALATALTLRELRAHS
Matrix protein 2: Matrix protein 2 (Influenza A virus, UniProt P0DOF5)
UniProt P0DOF5, sequence (whole entry, looked up): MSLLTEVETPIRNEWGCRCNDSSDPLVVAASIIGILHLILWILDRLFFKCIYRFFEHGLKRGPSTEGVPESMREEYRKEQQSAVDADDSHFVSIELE

SMILES | target or system | test | test system | conditions | scale | endpoint | value
CC1=C(C)C(=O)OC(C(C)(O)C2(O)CCC3(O)C4CC5OC56CC=CC(=O)C6(C)C4CCC32C)C1 (stereo not drawn) | MCF7/BUS | – | – | – | – | IC50 | 420 nM
O=c1[nH]c(NC[C@H](O)[C@H](O)[C@H](O)CO)c([N+](=O)[O-])c(=O)[nH]1 | ribH | enzyme kinetics | – | pH 7.0 | – | kcat | 0.002 ± 0.000167 s⁻¹
CCCC(C(=O)c1ccccc1)N1CCCC1 (stereo not drawn) | – | – | human, blood | intranasal | – | detection time in blood | 6 h
O=c1[nH]c(SC[C@H](O)[C@H](O)[C@H](O)CO)c([N+](=O)[O-])c(=O)[nH]1 | ribH | enzyme kinetics | – | pH 7.0 | – | kcat | 0.00333 ± 0.000167 s⁻¹
CN[C@H](CC(C)C)C(=O)N[C@H]1C(=O)N[C@@H](CC(N)=O)C(=O)N[C@H]2C(=O)N[C@H]3C(=O)N[C@H](C(=O)N[C@H](C(=O)O)c4cc(O)cc(O)c4-c4cc3ccc4O)[C@H](O)c3ccc(c(Cl)c3)Oc3cc2cc(c3O[C@@H]2O[C@H](CO)[C@@H](O)[C@H](O)[C@H]2O[C@H]2C[C@](C)(NCc3ccc(-c4ccc(Cl)cc4)cc3)[C@H](O)[C@H](C)O2)Oc2ccc(cc2Cl)[C@H]1O | – | – | mouse, plasma | intravenous, 10 mg/kg | – | Cmax | 65 µg/mL
CCCCCCCC(=O)OC[C@H](NC(=O)[C@H](CO)NC(=O)CN)C(=O)N[C@@H](Cc1ccccc1)C(=O)N[C@@H](CC(C)C)C(=O)N[C@@H](CO)C(=O)N1CCC[C@H]1C(=O)N[C@@H](CCC(=O)O)C(=O)N[C@@H](Cc1cnc[nH]1)C(=O)N[C@@H](CCC(N)=O)C(=O)N[C@@H](CCCNC(=N)N)C(=O)N[C@H](C(=O)N[C@@H](CCC(N)=O)C(=O)N[C@@H](CCC(N)=O)C(=O)N[C@@H](CCCNC(=N)N)C(=O)N[C@@H](CCCCN)C(=O)N[C@@H](CCC(=O)O)C(=O)N[C@@H](CO)C(=O)N[C@@H](CCCCN)C(=O)N[C@@H](CCCCN)C(=O)N1CCC[C@H]1C(=O)N1CCC[C@H]1C(=O)N[C@@H](C)C(=O)N[C@@H](CCCCN)C(=O)N[C@@H](CC(C)C)C(=O)N[C@@H](CCC(N)=O)C(=O)N1CCC[C@H]1C(=O)N[C@@H](CCCNC(=N)N)C(=O)O)C(C)C | – | – | – | injection, concentration not given | – | half-life | 21 ± 3 min
C=CCc1cc2c(c(OC)c1OC)OCO2 | 3T3 mouse fibroblasts | cytotoxicity | – | – | – | IC50 | 22000 nM
CCCCCc1cc(O)c2c(c1)OC(C)(C)C1CCC(C(=O)O)=CC21 (stereo not drawn) | – | – | human, plasma | inhalation | – | Tmax | ~80 min
CCN(CC)C12C3CCC4C3C3C(CCC31)C42 | Matrix protein 2 | inhibitor | – | 100 µM | – | inhibition | 0%
CC1(C)N=C(N)N=C(N)N1c1cccc(C(F)(F)F)c1 | respiratory syncytial virus | – | – | – | reference: cytotoxic over antiviral concentration | selectivity index | > 10000
CCCCCc1cc(O)c2c(c1)OC(C)(C)C1CCC(C)=CC21 (single isomer, unassigned; (-)) | – | – | human, plasma | oral, 40 mg | – | Cmax | 65 nM
NC12C3CCC4C3C3C(CCC31)C42 | Matrix protein 2 | inhibitor | – | 100 µM | – | inhibition | 4.8 ± 2.8%
CC1=C(C)C(=O)OC(C(C)(O)C2(O)CCC3(O)C4CC5OC56C(O)C=CC(=O)C6(C)C4CCC32C)C1 (stereo not drawn) | L5178Y | cell growth | – | – | – | IC50 | 990 nM
CCCCCc1cc(O)c2c(c1)OC(C)(C)C1CCC(CO)=CC21 (stereo not drawn) | – | – | human | dose not given, after cannabis smoking | reference: THC | plasma concentration | ~10%
CCCCCc1cc(O)c2c(c1)OC(C)(C)C1CCC(C)=CC21 (stereo not drawn) | – | – | – | – | – | logP | 6.42
O=C(OCC[18F])C1C2CCC(CC1c1ccc(/C=C\I)cc1)N2 (stereo not drawn) | SERT | HRRT PET | awake rhesus monkey, caudate | – | – | time to peak uptake | 85 min
CC(C)C[C@@H]1NC(=O)[C@H](C(C)C)NC(=O)[C@H](CO)NC(=O)CNC(=O)CNC(=O)[C@H](CCCNC(=N)N)NC(=O)[C@@H]2CCCN2C(=O)[C@@H](NC(=O)CC[C@H](NC(=O)c2ccc(N(C)Cc3cnc4nc(N)nc(N)c4n3)cc2)C(=O)O)C(C)(C)SSC[C@@H](C(=O)O)NC(=O)CNC(=O)[C@H]([C@@H](C)O)NC(=O)[C@H](C(C)C)NC1=O | MOLT-3 (LFA-1-expressing) | cytotoxicity | – | – | – | IC50 | 2750 nM
CC[C@H](C)C(=O)N1CCC(NC(=O)Nc2ccc(OC(F)(F)F)c(F)c2)CC1 | OATP1B3 | inhibitor | – | – | – | IC50 | 5800 nM

Some of these lines once more:
SMILES | target or system | test | test system | conditions | scale | endpoint | value
CCN(CC)C12C3CCC4C3C3C(CCC31)C42 | Matrix protein 2 | inhibitor | – | 100 µM | – | inhibition | 0%
CC1(C)N=C(N)N=C(N)N1c1cccc(C(F)(F)F)c1 | respiratory syncytial virus | – | – | – | reference: cytotoxic over antiviral concentration | selectivity index | > 10000
